Experimental data from different studies.
Lines come from different studies, so protocols differ. “And” joins repeats or separate records; there may be more than shown. ± gives the spread as reported.
CHRM4: Muscarinic acetylcholine receptor M4 (CHRM4, Homo sapiens, UniProt P08173)
Chain of UniProt P08173 (whole entry, looked up): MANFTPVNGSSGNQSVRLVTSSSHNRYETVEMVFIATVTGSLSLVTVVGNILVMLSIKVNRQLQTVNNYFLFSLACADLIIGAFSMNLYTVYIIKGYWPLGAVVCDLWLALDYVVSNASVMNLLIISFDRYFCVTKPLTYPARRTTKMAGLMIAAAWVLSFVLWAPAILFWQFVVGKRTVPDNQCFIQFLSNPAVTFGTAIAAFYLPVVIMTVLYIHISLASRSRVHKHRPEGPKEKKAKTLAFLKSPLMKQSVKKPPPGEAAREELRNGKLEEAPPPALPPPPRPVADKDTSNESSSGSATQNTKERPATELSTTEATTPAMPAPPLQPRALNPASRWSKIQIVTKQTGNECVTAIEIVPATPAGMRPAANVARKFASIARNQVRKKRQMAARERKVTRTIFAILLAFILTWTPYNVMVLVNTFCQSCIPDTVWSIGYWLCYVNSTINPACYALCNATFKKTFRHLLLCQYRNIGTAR
Hypoxanthine-guanine-xanthine phosphoribosyltransferase: Hypoxanthine-guanine-xanthine phosphoribosyltransferase (Plasmodium falciparum, UniProt P20035)
Chain of UniProt P20035 (whole entry, looked up): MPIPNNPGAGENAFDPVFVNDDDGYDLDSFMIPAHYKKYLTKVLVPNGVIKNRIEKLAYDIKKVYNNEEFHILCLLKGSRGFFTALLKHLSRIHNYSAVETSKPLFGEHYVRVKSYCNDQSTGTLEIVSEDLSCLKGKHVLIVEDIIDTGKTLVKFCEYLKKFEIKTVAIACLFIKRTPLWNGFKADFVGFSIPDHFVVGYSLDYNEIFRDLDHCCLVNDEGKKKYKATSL
TACR1: Substance-P receptor (TACR1, Homo sapiens, UniProt P25103)
Chain of UniProt P25103 (whole entry, looked up): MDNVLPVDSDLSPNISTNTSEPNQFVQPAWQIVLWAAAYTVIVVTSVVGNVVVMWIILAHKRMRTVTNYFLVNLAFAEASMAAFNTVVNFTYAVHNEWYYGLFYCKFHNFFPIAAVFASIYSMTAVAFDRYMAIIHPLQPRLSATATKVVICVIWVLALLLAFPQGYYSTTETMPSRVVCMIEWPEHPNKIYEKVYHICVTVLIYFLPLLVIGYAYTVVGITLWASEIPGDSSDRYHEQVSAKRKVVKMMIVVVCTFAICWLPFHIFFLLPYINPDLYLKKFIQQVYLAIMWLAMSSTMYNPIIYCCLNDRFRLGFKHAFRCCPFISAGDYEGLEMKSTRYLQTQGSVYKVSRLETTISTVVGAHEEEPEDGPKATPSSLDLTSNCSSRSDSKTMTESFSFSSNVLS
FUT9: 4-galactosyl-N-acetylglucosaminide 3-alpha-L-fucosyltransferase 9 (FUT9, Homo sapiens, UniProt Q9Y231)
Chain of UniProt Q9Y231 (whole entry, looked up): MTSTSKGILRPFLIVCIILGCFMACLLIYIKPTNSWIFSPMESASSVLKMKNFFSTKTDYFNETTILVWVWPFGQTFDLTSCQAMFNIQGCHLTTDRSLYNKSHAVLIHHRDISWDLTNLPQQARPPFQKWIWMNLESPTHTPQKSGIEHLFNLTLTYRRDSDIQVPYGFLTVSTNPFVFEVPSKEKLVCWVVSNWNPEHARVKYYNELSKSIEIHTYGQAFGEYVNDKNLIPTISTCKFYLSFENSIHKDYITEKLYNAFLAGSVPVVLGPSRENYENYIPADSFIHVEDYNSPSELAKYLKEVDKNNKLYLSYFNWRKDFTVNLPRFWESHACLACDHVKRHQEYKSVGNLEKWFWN
5-hydroxytryptamine receptor 2A: 5-hydroxytryptamine receptor 2A (Rattus norvegicus, UniProt P14842)
Chain of UniProt P14842 (whole entry, looked up): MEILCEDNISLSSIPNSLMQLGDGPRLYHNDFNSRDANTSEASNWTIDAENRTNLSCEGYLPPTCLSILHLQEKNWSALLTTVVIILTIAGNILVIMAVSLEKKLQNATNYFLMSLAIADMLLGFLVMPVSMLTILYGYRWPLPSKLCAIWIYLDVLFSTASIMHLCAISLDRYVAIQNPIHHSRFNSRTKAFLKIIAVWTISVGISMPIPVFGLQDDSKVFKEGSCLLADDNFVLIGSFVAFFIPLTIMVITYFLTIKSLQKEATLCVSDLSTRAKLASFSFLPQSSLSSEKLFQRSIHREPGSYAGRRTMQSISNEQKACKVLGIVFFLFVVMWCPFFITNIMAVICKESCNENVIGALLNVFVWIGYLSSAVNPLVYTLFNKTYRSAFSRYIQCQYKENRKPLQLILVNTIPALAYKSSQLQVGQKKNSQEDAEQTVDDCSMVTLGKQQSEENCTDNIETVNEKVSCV
Htr1a: 5-hydroxytryptamine receptor 1A (Htr1a, Rattus norvegicus, UniProt P19327)
Chain of UniProt P19327 (whole entry, looked up): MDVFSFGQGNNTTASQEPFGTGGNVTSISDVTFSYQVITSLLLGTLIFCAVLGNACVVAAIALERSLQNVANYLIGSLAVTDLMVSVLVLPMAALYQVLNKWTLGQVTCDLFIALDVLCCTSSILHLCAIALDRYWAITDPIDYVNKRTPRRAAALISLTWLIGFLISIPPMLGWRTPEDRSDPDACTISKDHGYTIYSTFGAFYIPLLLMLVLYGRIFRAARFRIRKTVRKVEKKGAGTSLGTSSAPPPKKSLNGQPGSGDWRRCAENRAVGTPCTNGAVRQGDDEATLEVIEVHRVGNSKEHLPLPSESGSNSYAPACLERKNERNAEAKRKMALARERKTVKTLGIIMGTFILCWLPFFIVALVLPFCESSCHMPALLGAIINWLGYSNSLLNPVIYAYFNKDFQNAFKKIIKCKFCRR
FUT6: 4-galactosyl-N-acetylglucosaminide 3-alpha-L-fucosyltransferase FUT6 (FUT6, Homo sapiens, UniProt P51993)
Chain of UniProt P51993 (whole entry, looked up): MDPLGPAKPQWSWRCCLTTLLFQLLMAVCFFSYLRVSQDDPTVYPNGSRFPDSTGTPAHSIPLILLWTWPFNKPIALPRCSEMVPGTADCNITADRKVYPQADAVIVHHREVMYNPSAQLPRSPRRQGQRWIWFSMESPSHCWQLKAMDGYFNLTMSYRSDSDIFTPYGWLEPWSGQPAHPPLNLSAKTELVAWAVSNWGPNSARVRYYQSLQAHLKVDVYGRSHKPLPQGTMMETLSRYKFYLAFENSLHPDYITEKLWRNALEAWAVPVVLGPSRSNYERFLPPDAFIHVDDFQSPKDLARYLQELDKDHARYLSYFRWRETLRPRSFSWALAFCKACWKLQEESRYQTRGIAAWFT
Beta-lactamase CTX-M-14: Beta-lactamase CTX-M-14 (Escherichia coli, UniProt Q9L5C7)
Muscleblind-like protein 1 with (CCUG)6 RNA: Muscleblind-like protein 1, with (CCUG)6 RNA (Homo sapiens, UniProt Q9NR56)
Chain of UniProt Q9NR56 (whole entry, looked up): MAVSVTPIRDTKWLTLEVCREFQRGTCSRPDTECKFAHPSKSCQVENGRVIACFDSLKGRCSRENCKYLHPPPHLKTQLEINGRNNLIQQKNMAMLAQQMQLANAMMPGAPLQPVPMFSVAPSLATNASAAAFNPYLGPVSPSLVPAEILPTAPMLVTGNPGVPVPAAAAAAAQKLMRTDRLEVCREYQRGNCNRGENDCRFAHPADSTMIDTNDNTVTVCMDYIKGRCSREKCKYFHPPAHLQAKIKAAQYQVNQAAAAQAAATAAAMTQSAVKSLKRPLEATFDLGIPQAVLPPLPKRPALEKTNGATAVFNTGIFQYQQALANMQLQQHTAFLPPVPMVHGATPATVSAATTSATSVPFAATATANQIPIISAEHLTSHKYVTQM
CASP1: Caspase-1 (CASP1, Homo sapiens, UniProt P29466)
Chain of UniProt P29466 (whole entry, looked up): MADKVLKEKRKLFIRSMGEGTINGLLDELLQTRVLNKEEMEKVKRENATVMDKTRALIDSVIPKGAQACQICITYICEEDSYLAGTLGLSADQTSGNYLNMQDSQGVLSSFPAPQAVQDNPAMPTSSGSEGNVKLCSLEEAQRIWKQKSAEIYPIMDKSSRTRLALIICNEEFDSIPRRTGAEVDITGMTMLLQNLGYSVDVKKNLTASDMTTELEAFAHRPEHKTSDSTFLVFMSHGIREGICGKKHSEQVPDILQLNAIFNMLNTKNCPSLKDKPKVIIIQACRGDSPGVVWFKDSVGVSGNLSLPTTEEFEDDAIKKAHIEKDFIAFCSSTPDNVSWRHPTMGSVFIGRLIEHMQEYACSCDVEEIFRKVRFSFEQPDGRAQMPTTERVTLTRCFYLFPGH
MAPK8: Mitogen-activated protein kinase 8 (MAPK8, Homo sapiens, UniProt P45983)
Chain of UniProt P45983 (whole entry, looked up): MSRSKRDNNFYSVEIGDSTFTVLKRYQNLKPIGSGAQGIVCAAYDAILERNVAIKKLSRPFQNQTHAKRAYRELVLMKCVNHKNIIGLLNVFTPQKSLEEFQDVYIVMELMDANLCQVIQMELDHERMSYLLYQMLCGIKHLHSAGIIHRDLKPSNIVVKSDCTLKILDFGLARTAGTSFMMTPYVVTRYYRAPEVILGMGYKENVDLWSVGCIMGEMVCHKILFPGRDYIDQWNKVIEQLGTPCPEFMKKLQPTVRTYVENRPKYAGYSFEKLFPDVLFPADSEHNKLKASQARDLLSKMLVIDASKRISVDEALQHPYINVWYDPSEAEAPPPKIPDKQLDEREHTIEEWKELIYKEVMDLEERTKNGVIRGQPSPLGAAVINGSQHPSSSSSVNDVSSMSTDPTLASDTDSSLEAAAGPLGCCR
Chain of UniProt P16296 (whole entry, looked up): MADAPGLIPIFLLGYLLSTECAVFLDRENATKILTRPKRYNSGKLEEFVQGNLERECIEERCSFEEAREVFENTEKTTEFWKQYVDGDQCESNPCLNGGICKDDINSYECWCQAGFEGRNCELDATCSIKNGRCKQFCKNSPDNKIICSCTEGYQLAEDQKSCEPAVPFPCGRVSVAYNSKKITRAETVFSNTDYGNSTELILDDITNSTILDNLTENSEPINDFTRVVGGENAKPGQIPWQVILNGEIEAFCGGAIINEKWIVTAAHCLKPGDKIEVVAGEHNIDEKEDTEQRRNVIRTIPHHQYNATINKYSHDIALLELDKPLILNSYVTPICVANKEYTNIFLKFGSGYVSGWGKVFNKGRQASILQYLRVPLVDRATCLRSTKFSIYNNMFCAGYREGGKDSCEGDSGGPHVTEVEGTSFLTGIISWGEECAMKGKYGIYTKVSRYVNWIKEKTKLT
Chain of UniProt Q14973 (whole entry, looked up): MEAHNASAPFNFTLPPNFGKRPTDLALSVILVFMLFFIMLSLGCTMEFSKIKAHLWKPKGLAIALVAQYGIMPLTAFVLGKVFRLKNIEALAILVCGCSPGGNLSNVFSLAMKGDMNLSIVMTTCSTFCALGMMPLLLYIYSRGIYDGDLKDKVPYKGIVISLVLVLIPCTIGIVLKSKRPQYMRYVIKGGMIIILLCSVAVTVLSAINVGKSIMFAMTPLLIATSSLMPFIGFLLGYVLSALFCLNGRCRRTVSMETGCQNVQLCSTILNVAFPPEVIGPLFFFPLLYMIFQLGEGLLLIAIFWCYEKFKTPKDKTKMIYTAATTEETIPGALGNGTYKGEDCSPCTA

With CN1CCN(CCCCC2CCN(CC(=O)N3c4ccccc4NC(=O)c4ccccc43)CC2)CC(N)C1 (centres unmarked) the Ki was 0.01 µM (CHRM4; ligand displacement, radioligand).
O=c1[nH]cnc2c(CN[C@H](CO)CCP(=O)(O)O)c[nH]c12 gave a Ki of 0.00065 µM (Hypoxanthine-guanine-xanthine phosphoribosyltransferase; enzyme activity, inhibitor; pH 7.4).
For Cc1ccccc1-c1cc(N2CCCCC2)ccc1N(C)C(=O)C(C)(C)c1cc(C(F)(F)F)cc(C(F)(F)F)c1, the Ki was 0.071 µM (TACR1; cell-free assay; pH 7.4).
The Ki of CCCCc1ccc(N2C(=O)/C(=N\NC(=N)N)c3cc(C)ccc32)cc1 is reported as 3.2 µM (Penicillin-binding protein 1B (mrcB, Escherichia coli K-12, UniProt P02919); transglycosylation activity, inhibitor; with: dansyl-lipid II).
For COc1ccc(CN(C(=O)c2sc3ccccc3c2Cl)C2CCC(N)CC2)cc1-c1ccc(C#N)cc1 (centres unmarked), the Ki was 0.096 µM (Protein smoothened (Smo, Mus musculus, UniProt P56726); ligand displacement, radioligand; cell membranes).
The Ki of C[C@@H]1O[C@H](OP(=O)(O)OP(=O)(O)OC[C@H]2O[C@@H](n3cnc4c(=O)[nH]c(N)nc43)[C@H](O)[C@@H]2O)[C@@H](F)[C@H](O)[C@@H]1O is reported as 27.8 µM (FUT9; enzyme activity, inhibitor).
The Ki of Cc1cc(OCCCN2CCN(c3cccc4sccc34)CC2)ccc1CN1CCCC1 is reported as 0.276 µM (5-hydroxytryptamine receptor 2A; cell-free assay).
The Ki of Nc1nc2c(ncn2[C@@H]2O[C@H](COP(=O)(O)OP(=O)(O)O[C@H]3O[C@@H](CNC(=O)C(c4ccccc4)c4ccccc4)[C@@H](O)[C@@H](O)[C@@H]3F)[C@@H](O)[C@H]2O)c(=O)[nH]1 is reported as 3.8 µM (FUT9; enzyme activity, inhibitor).
Clc1cc(OCCCN2CCN(c3cccc4sccc34)CC2)ccc1CN1CCOCC1 gave a Ki of 0.146 µM (Htr1a; cell-free assay, radioligand).
For N[C@@H](Cc1ccccc1)C(=O)NCC(=O)NCCOCCOCC(=O)NCC(=O)N1CCCC1, the Ki was 703 µM (Prolyl endopeptidase FAP (FAP, Homo sapiens, UniProt Q12884); enzyme activity, inhibitor, fluorescence; pH 7.5).
CC(C)CNC(=O)[C@@H](NC[C@@H](O)[C@H](Cc1ccccc1)NC(=O)c1cc(C(=O)N[C@H](C)c2ccccc2)cc(N(C)S(C)(=O)=O)c1)[C@H](C)O gave a Ki of 0.0146 ± 0.0029 µM (Beta-secretase 2 (BACE2, Homo sapiens, UniProt Q9Y5Z0)).
With Nc1nc2c(ncn2[C@@H]2O[C@H](COP(=O)(O)OP(=O)(O)O[C@H]3O[C@@H](CNC(=O)c4ccccc4)[C@@H](O)[C@@H](O)[C@@H]3F)[C@@H](O)[C@H]2O)c(=O)[nH]1 the Ki was 12.9 µM (FUT6; enzyme activity, inhibitor).
O=C(Nc1cccc(-c2nn[nH]n2)c1)c1cc(-c2cncnc2)cc(C(F)(F)F)c1 gave a Ki of 53.8 µM (Beta-lactamase CTX-M-14; enzyme activity, inhibitor, absorbance; pH 7).
For CN(C)CCNC(=O)c1cccc2c(NCCCCc3c(N)nc(N)nc3N)c3ccccc3nc12, the Ki was 2.8 µM and 3 µM (Muscleblind-like protein 1 with (CCUG)6 RNA; MBNL1-RNA binding, gel mobility shift; 100 nM tRNA, with: (CCUG)6 RNA, 350 nM MBNL1).
With CC(=O)N[C@@H](Cc1c[nH]c2ccccc12)C(=O)N[C@@H](CC(=O)O)C(=O)N[C@@H](CCCNC(=N)N)C(=O)N[C@@H](C)C(=O)N[C@H](C=O)CC(=O)O the Ki was 0.331 µM (CASP1; enzyme activity, inhibitor, fluorescence; pH 7).
Clc1cc(CN2CCCCC2)ccc1OCCCN1CCN(c2cccc3sccc23)CC1 has a Ki of 0.253 µM (Htr1a; cell-free assay, radioligand).
The Ki of Nc1nc2c(ncn2[C@@H]2O[C@H](COP(=O)(O)OP(=O)(O)O[C@H]3O[C@@H](CNC(=O)c4ccc(-c5ccccc5)cc4)[C@@H](O)[C@@H](O)[C@@H]3F)[C@@H](O)[C@H]2O)c(=O)[nH]1 is reported as 10.4 µM (FUT6; enzyme activity, inhibitor).
O=c1[nH]c(O)nc2c([C@@H]3N[C@H](COP(=O)(O)O)[C@@H](O)[C@H]3O)c[nH]c12 gave a Ki of greater than 100 µM (Hypoxanthine-guanine-xanthine phosphoribosyltransferase; enzyme activity, inhibitor; pH 7.4).
O=C(Nc1cccc(-c2nn[nH]n2)c1)c1cc(-c2cccs2)cc(C(F)(F)F)c1 has a Ki of 27.3 µM (Beta-lactamase CTX-M-14; enzyme activity, inhibitor, absorbance; pH 7).
OCC1OC(Oc2ccc(C=Cc3cc(O)cc(O)c3)cc2)C(O)C(O)C1O (centres unmarked) has a Ki of 5 ± 0.1 µM (Xanthine dehydrogenase/oxidase (XDH, Bos taurus, UniProt P80457); superoxide generation, inhibitor; pH 10.0, 25 °C, with: xanthine).
The Ki of CC(C)C[C@H](NC(=O)[C@H](CCCCN)NC(=O)[C@H](CCCCN)NC(=O)[C@H](C)NC(=O)[C@H](CCCCN)NC(=O)[C@H](CCCCN)NC(=O)[C@@H]1CCCN1C(=O)[C@H](C)NC(=O)[C@H](CCCCN)NC(=O)[C@@H]1CCCN1)C(=O)O is reported as 600 ± 300 µM (Cyclin-dependent kinase 5, with p25 (CDK5, Homo sapiens, UniProt Q00535); inhibitor; 0.2 mM Mg2+, with: ATP varied).
Cc1ccccc1-c1cc(N2CCN(C)CC2)ccc1N(C)C(=O)C(C)(C)c1cc(C(F)(F)F)cc(C(F)(F)F)c1 gave a Ki of 0.00072 µM (TACR1; cell-free assay; pH 7.4).
CN(C)c1ccc(-n2cc(COC(=O)[C@@]3(C)C=C(C(=O)OC(C)(C)C)C(=O)CC3)nn2)cc1 gave a Ki of 13.6 µM (MAPK8; ligand displacement, FP).
c1cc(N2CCN(CCCOc3ccc(CN4CCCCC4)cc3)CC2)c2ccsc2c1 gave a Ki of 0.206 µM (5-hydroxytryptamine receptor 2A; cell-free assay).
With O=C1Nc2ccccc2N(C(=O)CN2CCC(CCCCN3CCC(N4CCC(n5c(=O)[nH]c6ccccc65)CC4)CC3)CC2)c2ccccc21 the Ki was 0.0112 µM (CHRM4; ligand displacement, radioligand).
The Ki of COc1ccc2nc3cc(Cl)ccc3c(NCCCCc3c(N)nc(N)nc3N)c2c1 is reported as 2.5 ± 0.2 µM (Muscleblind-like protein 1 with (CCUG)6 RNA; MBNL1-RNA binding, gel mobility shift; no tRNA, with: (CCUG)6 RNA, 350 nM MBNL1).
For CC(=O)N[C@@H](C)C(=O)N[C@@H](CC(=O)O)C(=O)N[C@@H](CCCNC(=N)N)C(=O)N[C@H](C(=O)N[C@H](C=O)CC(=O)O)[C@@H](C)O, the Ki was 1.48 µM (CASP1; enzyme activity, inhibitor, fluorescence; pH 7).
CCCCOc1ccc(C(=O)OCC[N+]2(C)CC=CCC2)cc1 (centres unmarked) gave a Ki of 7.76 µM (CHRM4; ligand displacement, radioligand; cell membranes).
The Ki of CC[C@H](C)[C@H](NC(=O)CN)C(=O)N[C@H](C(=O)N[C@@H](CC(N)=O)C(=O)N[C@H](C(=O)N[C@@H](CC(C)C)C(=O)N[C@@H](CCC(N)=O)C(=O)N[C@@H](CCCCN)C(=O)N[C@@H](Cc1ccc(O)cc1)C(=O)N[C@@H](Cc1ccc(O)cc1)C(=O)N[C@@H](CO)C(=O)N[C@@H](CCCNC(=N)N)C(=O)N[C@H](C(=O)N[C@@H](CCC(N)=O)C(=O)NCC(=O)NCC(=O)N[C@@H](CCC(N)=O)C(=O)N[C@@H](CO)C(=O)N[C@@H](C)C(=O)N[C@H](C(=O)N[C@@H](CC(C)C)C(=O)N[C@@H](CO)C(=O)N[C@@H](CO)C(=O)N[C@@H](CC(C)C)C(=O)N1CCC[C@H]1C(=O)N[C@@H](CCC(N)=O)C(=O)N[C@@H](CCC(=O)O)C(=O)N[C@@H](CCC(=O)O)C(=O)N[C@@H](CCC(N)=O)C(=O)N[C@H](C(=O)NCC(=O)N[C@@H](CCCCN)C(=O)N[C@@H](CO)C(=O)N[C@@H](CO)C(=O)N[C@H](C(=O)N[C@@H](CCCNC(=N)N)C(=O)NCC(=O)N[C@@H](CCCNC(=N)N)C(=O)N[C@@H](CCCCN)C(=O)N[C@@H](CO)C(=O)N[C@@H](CO)C(=O)N[C@@H](CCC(N)=O)C(=O)N[C@@H](CCC(N)=O)C(=O)N[C@@H](CCC(N)=O)C(=O)N[C@@H](CCC(N)=O)C(N)=O)[C@@H](C)O)[C@@H](C)CC)C(C)C)C(C)C)[C@@H](C)O)[C@@H](C)CC is reported as greater than 5 µM (Melanocortin receptor 4 (MC4R, Homo sapiens, UniProt P32245); HEK-293T transfected; 2 h, 37 °C, with: Eu-NDP-MSH).
Cc1ccc(O)c2c3c(nn12)CCC(C)(NC(=O)c1ccc(-n2cnc4cc(C(=O)O)ccc42)cc1Cl)C3 (centres unmarked) gave a Ki of 0.021 µM and 0.022 µM (Coagulation factor IX (Rattus norvegicus, UniProt P16296); enzyme activity, inhibitor).
For O=C(Nc1cccc(-c2nn[nH]n2)c1)c1cc(-c2ccccn2)cc(C(F)(F)F)c1, the Ki was 27.7 µM (Beta-lactamase CTX-M-14; enzyme activity, inhibitor, absorbance; pH 7).
C[C@H](CCC(=O)O)[C@H]1CC[C@H]2[C@@H]3[C@@H](OC(=O)c4cccnc4)C[C@H]4C[C@H](O)CC[C@]4(C)[C@H]3CC[C@]12C has a Ki of 11.7 µM (Hepatic sodium/bile acid cotransporter (SLC10A1, Homo sapiens, UniProt Q14973); transporter uptake, inhibitor, radiometric).
The Ki of O=C1Nc2ccccc2N(C(=O)CN2CCC(CCCCNCCCCC3CCN(CCCN4C(=O)CCc5ccccc54)CC3)CC2)c2ccccc21 is reported as 0.00331 µM (CHRM4; ligand displacement, radioligand).
For O=C(Nc1cccc(-c2nn[nH]n2)c1)c1cc(-c2ccncc2)cc(C(F)(F)F)c1, the Ki was 18.5 µM (Beta-lactamase CTX-M-14; enzyme activity, inhibitor, absorbance; pH 7).
CNc1ccccc1C(=O)O[C@H]1[C@@H](O)[C@H](n2ccc(N)nc2=O)O[C@@H]1COP(=O)(O)OP(=O)(O)O gave a Ki of 1.5 ± 0.075 µM (Adcy2/ADCY5, C1/C2 domains (Rattus norvegicus, UniProt P26769+P30803); adenylyl cyclase activity, inhibitor, purified enzyme; with: 10 mM MnCl2, 100 µM forskolin, no Gsα-GTPγS).
For CN(C)c1ccc(C#CCOC(=O)[C@]2(C)C=C(C(=O)OC(C)(C)C)C(=O)CC2)cc1, the Ki was 1.3 µM (MAPK8; ligand displacement, FP).
With Cc1cc(OCCCN2CCN(c3cccc4sccc34)CC2)ccc1CN1CCCCC1 the Ki was 0.394 µM (Htr1a; cell-free assay, radioligand).
For CCCCCCCCCCCCCC[C@@H](O)[C@@H](O)[C@H](CO[C@H]1O[C@H](CO)[C@H](O)[C@H](O)[C@H]1O)NC(=O)CCCCCCc1ccccc1, the Ki was 1.7 ± 1.1 µM (Cd1d1 (Mus musculus, UniProt P11609); competitive binding on microarray; with: surface-printed ligand).

A few entries again:
CNc1ccccc1C(=O)O[C@H]1[C@@H](O)[C@H](n2ccc(N)nc2=O)O[C@@H]1COP(=O)(O)OP(=O)(O)O gave a Ki of 1.5 ± 0.075 µM (Adcy2/ADCY5, C1/C2 domains (Rattus norvegicus, UniProt P26769+P30803); adenylyl cyclase activity, inhibitor, purified enzyme; with: 10 mM MnCl2, 100 µM forskolin, no Gsα-GTPγS).
For CN(C)c1ccc(C#CCOC(=O)[C@]2(C)C=C(C(=O)OC(C)(C)C)C(=O)CC2)cc1, the Ki was 1.3 µM (MAPK8; ligand displacement, FP).
With Cc1cc(OCCCN2CCN(c3cccc4sccc34)CC2)ccc1CN1CCCCC1 the Ki was 0.394 µM (Htr1a; cell-free assay, radioligand).
For CCCCCCCCCCCCCC[C@@H](O)[C@@H](O)[C@H](CO[C@H]1O[C@H](CO)[C@H](O)[C@H](O)[C@H]1O)NC(=O)CCCCCCc1ccccc1, the Ki was 1.7 ± 1.1 µM (Cd1d1 (Mus musculus, UniProt P11609); competitive binding on microarray; with: surface-printed ligand).
